Measured values gathered from unrelated publications.
Lines come from different studies, so protocols differ. ± marks the error that the study gave.

CC[C@H](C)[C@H](N)C(=O)N[C@H](CC(C)C)C(=O)N[C@@H](CCCNC(=N)N)C(=O)N[C@@H](Cc1c[nH]c2ccccc12)C(=O)N[C@@H](CO)C(=O)N[C@@H](CCCNC(=N)N)C(=O)N[C@@H](CCCCN)C(=O)N[C@@H](CCSC)C(=O)N1CCC[C@H]1C(=O)N[C@@H](CS)C(=O)N[C@H](C(=O)N[C@@H](CO)C(=O)O)C(C)C has an IC50 of > 100 µM (SUP-T1; Erk phosphorylation, inhibitor, phospho flow cytometry; together with: CXCL12 100 ng/mL).
COc1cccc2c1C(=O)c1c(O)c3c(c(O)c1C2=O)C[C@@](O)(C(=O)CO)C[C@@H]3O[C@H]1C[C@H](N)[C@H](O)[C@H](C)O1 has an IC50 of 0.05 µM (NCI-H1299; cell growth, WST-1; 72 h).
With CCCCCCOC(=O)c1ccc(O)cc1 the IC50 was 17.6 ± 5.67 µM (AC16 cardiomyocytes; mitochondrial membrane potential decrease; 1 h).
With CC[C@H](C)[C@H](NC(C)=O)C(=O)N[C@@H](CC(C)C)C(=O)N[C@@H](CCCNC(=N)N)C(=O)N[C@@H](Cc1c[nH]c2ccccc12)C(=O)N[C@@H](CO)C(=O)N[C@@H](CCCNC(=N)N)C(=O)N[C@@H](CCCCN)C(=O)N[C@@H](CC(C)C)C(=O)N1CCC[C@H]1C(=O)N[C@@H](CS)C(=O)N[C@H](C(=O)N[C@@H](CO)C(N)=O)C(C)C the IC50 was 42.1 ± 29.8 µM (SUP-T1; Erk phosphorylation, inhibitor, phospho flow cytometry; together with: CXCL12 100 ng/mL).
The IC50 of COC[C@@H](C)NC1CCC(Nc2cc(-c3cccc(NCC4(C#N)CCOCC4)n3)c(Cl)cn2)CC1 (stereo partly shown) is reported as 0.09 µM (patient-derived organoid sample C; organoid viability; human; 96 h).
The IC50 of Cc1cc(Nc2ncnc3ccc(NC4=NC(C)(C)CO4)cc23)ccc1Oc1ccn2ncnc2c1 is reported as 0.0553 µM (Ba/F3 expressing HER2 wild type; cell growth, inhibitor, CellTiter-Glo).
The IC50 of COC(=O)CN=c1scc(-c2ccccc2)n1-c1ccccc1OC is reported as 13.2 µM (Panc 03.27; cell viability, MTT; 72 h).
O=C(O)COCC(=O)O has an IC50 of 10100 µM (iPSC-derived hepatocytes B2; cell viability; 48 h, differentiation day 23).
For COc1cccc2c1C(=O)c1c(O)c3c(c(O)c1C2=O)C[C@@](O)(C(=O)CO)C[C@@H]3O[C@H]1C[C@H](N)[C@H](O)[C@H](C)O1, the IC50 was 17.6 ± 0.76 µg/mL (MCF7/ADR; cell viability, MTT; 24 h).
The IC50 of C=CC(=O)NC1CCN(c2ncc3ncnc(Nc4ccc(Oc5ccc6c(c5)ncn6C)c(C)c4)c3n2)CC1 is reported as 0.0031 µM (Ba/F3 expressing HER2 wild type; cell growth, inhibitor, CellTiter-Glo).
With C=CC(=O)Nc1cc2c(Nc3ccc(OCc4ccccn4)c(Cl)c3)ncnc2cc1OCCN1CCOCC1 the IC50 was 0.0991 µM (NCI-H2073 ASV knock-in; cell proliferation, CellTiter-Glo; 72 h, geometric mean).
With C=CC[C@@H]1/C=C(\C)C[C@H](C)C[C@H](OC)[C@H]2O[C@@](O)(C(=O)C(=O)N3CCCC[C@H]3C(=O)O[C@H](/C(C)=C/[C@@H]3CC[C@@H](O)[C@H](OC)C3)[C@H](C)[C@@H](O)CC1=O)[C@H](C)C[C@@H]2OC the IC50 was 0.00947 µM (Jurkat FKBP12 knockout; NFAT luciferase reporter).
Cc1c(C)c2c(c(C)c1O)CCC(C)(COc1ccc(CC3SC(=O)NC3=O)cc1)O2 (stereo not shown) gave an IC50 of 50 µM (iPSC-derived hepatocytes B2; cell viability; 72 h, differentiation day 23).
CNC(=O)c1ncn2c(NCc3c(F)ccc4c3CCO4)ncc(-c3ccccc3)c12 has an IC50 of 0.0515 ± 0.0007 µM (KARPAS-422; concentration not given, 168 h).
COc1cc(C#N)c(Oc2ccccc2C)cc1-n1c(=O)cc(-c2ccc(C(F)(F)F)cc2)[nH]c1=O gave an IC50 of ~30 µM (U-87 MG).
CSCC[C@H](NC(=O)[C@@H](N)CCSC)C(=O)N[C@@H](CCCNC(=N)N)C(=O)N[C@@H](Cc1c[nH]c2ccccc12)C(=O)N[C@@H](CO)C(=O)N[C@@H](CCCNC(=N)N)C(=O)N[C@@H](CCCCN)C(=O)N[C@@H](CCSC)C(=O)N1CCC[C@H]1C(=O)N[C@@H](CS)C(=O)N[C@H](C(=O)N[C@@H](CO)C(N)=O)C(C)C gave an IC50 of 7.3 ± 3.05 µM (SUP-T1; Erk phosphorylation, inhibitor, phospho flow cytometry; together with: CXCL12 100 ng/mL).
The IC50 of CCCCN1C[C@H](O)[C@@H](O)[C@@H](O)[C@H]1CO is reported as 33.1 µM (sample BC patient fibroblasts; Gb3 level lowering, LC-MS/MS, item: Gb3 d18:1/18:0; 216 h).
CSCC[C@H](N)C(=O)N[C@H](CC(C)C)C(=O)N[C@@H](CCCNC(=N)N)C(=O)N[C@@H](Cc1c[nH]c2ccccc12)C(=O)N[C@@H](CO)C(=O)N[C@@H](CCCNC(=N)N)C(=O)N[C@@H](CCCCN)C(=O)N[C@@H](CC(C)C)C(=O)N1CCC[C@H]1C(=O)N[C@@H](CS)C(=O)N[C@H](C(=O)N[C@@H](CO)C(N)=O)C(C)C gave an IC50 of > 100 µM (SUP-T1; Erk phosphorylation, inhibitor, phospho flow cytometry; together with: CXCL12 100 ng/mL).
C=C1C[C@](OC)([C@H](OCOC/C=C/B2OC(CC)(CC)C(CC)(CC)O2)C(=O)NC[C@@H]2C[C@@H](OC)C(C)(C)[C@@H](C[C@@H](COC)OC)O2)O[C@H](C)[C@@H]1C gave an IC50 of 0.049 ± 0.025 µM (U-87 MG; cell viability, sulforhodamine B; 72 h, 37 °C, without H2O2).
COc1cc(NCC(=O)Nn2c(C)nc3ccc(Cl)cc3c2=O)cc(OC)c1OC gave an IC50 of 608 ± 13.1 µM (LoVo; cytotoxicity, LDH release; 24 h, 50% viability reduction).
C=CC(=O)Nc1cc(Nc2nccc(-c3cn(C)c4ccccc34)n2)c(OC)cc1N(C)CCN(C)C has an IC50 of 0.0494 ± 0.0035 µM (Ba/F3 EGFR G719S/T263P; cell proliferation; 72 h).
CNc1nc2c(c(N3CC(=O)Nc4cc(OC)ccc43)n1)CCC2 has an IC50 of 0.001 to 0.004 µM (PDX-derived, HCI-10-Luc2, taxane refractory; cell growth, MTS).
For CSCC[C@H](NC(=O)[C@H](CCCCN)NC(=O)[C@H](CCCNC(=N)N)NC(=O)[C@H](CO)NC(=O)[C@H](Cc1c[nH]c2ccccc12)NC(=O)[C@H](CCCNC(=N)N)NC(=O)[C@H](CC(C)C)NC(=O)[C@H](CO)NC(C)=O)C(=O)N1CCC[C@H]1C(=O)N[C@@H](CS)C(=O)N[C@H](C(=O)N[C@@H](CO)C(N)=O)C(C)C, the IC50 was > 100 µM (SUP-T1; Erk phosphorylation, inhibitor, phospho flow cytometry; together with: CXCL12 100 ng/mL).
For C[C@H](Nc1ccc2c(c1)OCCn1cc(N3C(=O)OC[C@H]3C(F)F)nc1-2)C(N)=O, the IC50 was 1.28 µM (CAL-51; growth rate inhibition, CellTiter-Glo; 120 h).
For COc1ccc(F)cc1C(=O)NCc1ccc(-c2nn([C@@H](C)C(F)(F)F)c(N)c2C(N)=O)cc1, the IC50 was > 0.1 µM (Rec1; item: FGF-2; 24 h).

Excerpt of the above:
With CC[C@H](C)[C@H](NC(C)=O)C(=O)N[C@@H](CC(C)C)C(=O)N[C@@H](CCCNC(=N)N)C(=O)N[C@@H](Cc1c[nH]c2ccccc12)C(=O)N[C@@H](CO)C(=O)N[C@@H](CCCNC(=N)N)C(=O)N[C@@H](CCCCN)C(=O)N[C@@H](CC(C)C)C(=O)N1CCC[C@H]1C(=O)N[C@@H](CS)C(=O)N[C@H](C(=O)N[C@@H](CO)C(N)=O)C(C)C the IC50 was 42.1 ± 29.8 µM (SUP-T1; Erk phosphorylation, inhibitor, phospho flow cytometry; together with: CXCL12 100 ng/mL).
The IC50 of COC[C@@H](C)NC1CCC(Nc2cc(-c3cccc(NCC4(C#N)CCOCC4)n3)c(Cl)cn2)CC1 (stereo partly shown) is reported as 0.09 µM (patient-derived organoid sample C; organoid viability; human; 96 h).
